Measurements pooled from the literature.
A part holds a random share of what one study measured. Substitutions count along the parent as printed.

Block 1 — method: RNA Bind-n-Seq; form: RNA; medium: in vitro; tested at: 365 nM; baseline: no-protein control; reading: higher = stronger binding
Target: RNA binding protein fox-1 homolog 2, RRM domain, GST-SBP tag (RBFOX2, Homo sapiens, UniProt O43251-10, residues 100-194)
Setting: natural RNA segment, single round, ends assumed
Target sequence (chain): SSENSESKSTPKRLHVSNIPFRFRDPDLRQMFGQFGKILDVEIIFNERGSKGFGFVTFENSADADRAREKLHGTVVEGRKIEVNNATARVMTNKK
Strand	RBNS enrichment (R)
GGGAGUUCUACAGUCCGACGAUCCUCCUUUGCUGCCCACUUGUAAGUUUAAAUAAGGACACCGCCCUACACAAACCUCACCCCUGUCACAUCAGUGACUCUGACCACUUUUGUUCUCAAACUCUCUCACUAUUUGGAAUUCUCGGGUGCCAA	0.661
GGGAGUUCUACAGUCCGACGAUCACUCCUUUUCCUGUCCCGUUUCCAGUCCCACUGAGCCAUUCACUUCUGCUGAACCAUUUUUCUUAGGAUGCAGCCGUCUCACUCCCUUGUCCUGUAAAUCGUGUAUUCAUUGGAAUUCUCGGGUGCCAA	0.798
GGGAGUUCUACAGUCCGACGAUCUGGUUCUUUGCUGUUUCUAUUAACCCACAGCAUUAUUUUAAUAAAUGUUAUAAUACCAACCUACUAACUCUGGACUUUGUCUGUUUAUUAACCUUUAUAUGUUUAAUUAAUGGAAUUCUCGGGUGCCAA	0.496
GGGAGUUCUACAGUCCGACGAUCUGUCCUUAAUGCUGCUUCUGUUAACAGUGAUCUCUUUCUUUUUUUCAUUCUUAUAUCUUCAUUAGUUCAUCAUAAAUCUGUCCAGUUGAGGCCUCAGGACCACGGCAUGAUGGAAUUCUCGGGUGCCAA	3.83
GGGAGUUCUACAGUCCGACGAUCUGGCCAGAGCUCCUGGUGUCAAAUGCUGGGAACAGGAGUCUUCUUACAAAUUAUUUUUCUCCUCUUUCCUCUCGCCCUCUCUUUCACUAUUUUCCCCCCAGACUGGAAUUUGGAAUUCUCGGGUGCCAA	0.56
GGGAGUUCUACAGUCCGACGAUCACCAUAGCUAAGUAGCAUCGCAGACUUAAGCGUACAAAGUGAUCUUGUUCACAAGUAAUCUGUUGACAGUGCCAAUAAAUGAUAAAAAAAAAAUUAACAUGUCACAAUGUUGGAAUUCUCGGGUGCCAA	0.504
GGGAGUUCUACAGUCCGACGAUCCACAAUGUUCAAAUGGCGGCUGACUCUACAGCAUUCUGUAGGUCCCUGCCCCCCUAGCUGAAGGGGUGUGCCAUACUACCUUAAAUGCAAACACUAGAUAUGCAAAACUGUGGAAUUCUCGGGUGCCAA	0.299
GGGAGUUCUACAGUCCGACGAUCAUCGUAAUGUCAAAGCCCUUGCUGAAUGAAGAACAGCUUAGCUCACUUCCUGGAUGUUGCAAUAAUACAAACCAGUGUACCUCUGACCUCACCGGGAGAGCUGGGGCGCUUGGAAUUCUCGGGUGCCAA	0.431
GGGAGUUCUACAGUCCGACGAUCGAUGAUUUGUGCAUUUUAAAAAAUGAGUUUCUUUCCCUCUUAGCACCCCUCCUUCCUGUCUGGUUAGGAAGCCCAAUGCACCCUCUGAGGUCAUCACUUCUGUUCUAUGUUGGAAUUCUCGGGUGCCAA	0.453
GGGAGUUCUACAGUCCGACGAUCAUGGAACUAUGGGUUCUCUUCGCAAAGCCAAAGGAUAGUGUUUAACAAGCCAGCUGGCUUAUGCUGGUUCUCAGCUGUUUAAAAAAAAAAAAAAAAAGGAAUAGAAACAGUGGAAUUCUCGGGUGCCAA	0.46
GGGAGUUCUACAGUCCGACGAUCAAAUGUUGACUCUCCAUCCAUAGUGUUAGGGGCAGCCGUGGAAGCAGCAGCAGCCAGGGAUGUCUCUGGGCCUGGCUCUCCUGCAUGCUGUGCCCGGGGCAGGCCUGACGUGGAAUUCUCGGGUGCCAA	2.63
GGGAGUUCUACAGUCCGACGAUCACCACUCUAUAUUUUAUGAAUUACAUGUGGGUUUUUUAUAUAUAAAAACAUAUGCGCUGACAUUUUAUUACAAGCUGCAUGUCCUGACCUUCUUUGAAUUAAGUGGACUGUGGAAUUCUCGGGUGCCAA	1.91

Block 2 — target: CCNE2, cyclin fold, Cln2 fusion (human); method: yeast growth competition, sequencing; medium: yeast; setting: weak parent motif; baseline: not given; reading: higher = stronger binding
Starting sequence: PKMYT1 docking peptide (human); SFEPRNLLSLFED
Substitution	normalised enrichment score
SFEPRNDLSLFED [L7D]	-0.0587
SFKPRNLLSLFED [E3K]	1.01
SFEPRNLLTLFED [S9T]	0.117
SFEPRNLDSLFED [L8D]	-0.83
SFEPRNLLSLFWD [E12W]	0.317
SFEPNNLLSLFED [R5N]	-0.118

Block 3 — method: competition protein-binding microarray; form: double-stranded DNA, one strand shown; medium: in vitro; tested at: 2 µM; added: Pho4 competitor, 0.05 µM; reading: higher = stronger binding
Target: Centromere-binding protein 1, full length, His-tagged (CBF1, Saccharomyces cerevisiae, UniProt P17106, residues 1-351)
Sequence of UniProt P17106 (whole entry, looked up): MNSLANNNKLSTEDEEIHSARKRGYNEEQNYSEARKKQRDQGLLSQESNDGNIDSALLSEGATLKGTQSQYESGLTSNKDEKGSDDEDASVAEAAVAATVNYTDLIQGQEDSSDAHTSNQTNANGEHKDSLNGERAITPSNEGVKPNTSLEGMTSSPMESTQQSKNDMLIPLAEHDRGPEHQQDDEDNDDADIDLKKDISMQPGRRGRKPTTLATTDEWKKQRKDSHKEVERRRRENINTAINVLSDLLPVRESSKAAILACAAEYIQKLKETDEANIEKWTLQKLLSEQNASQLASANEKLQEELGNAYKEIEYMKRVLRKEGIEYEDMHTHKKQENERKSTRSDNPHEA
Setting: whole 60-bp probe, lowest competitor level
Strand	fluorescence intensity
AAAGCGGTAATTTGCTAAGTGGGTGCAGATATCTATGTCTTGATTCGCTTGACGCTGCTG	64.8 a.u.
AAAGCGGTAATTTGTCGTGTGGGTGCAGATATCTATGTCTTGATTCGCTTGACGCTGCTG	66.5 a.u.
GGACATAAATGCTCGCGCATGACAGAGACTGGCCGGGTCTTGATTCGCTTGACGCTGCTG	81.9 a.u.
CGCTAATTTCCTACCCACGTGCTTTAAATAACAATTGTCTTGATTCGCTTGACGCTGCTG	5830 a.u.
ACTCTTGGCCAAAGACCCGTGGTGAAGCCATGAATCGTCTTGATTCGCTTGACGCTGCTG	70 a.u.
CAACGTATAGACCATCACGTGGTGAGTTTGAAGGGAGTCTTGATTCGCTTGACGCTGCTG	3910 a.u.
TCCACCAGTGGGCCCAGTGTGACGGCCACACTGGACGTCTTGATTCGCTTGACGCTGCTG	67.4 a.u.
CGTCCTAGTGATTGCGACGTGGGTGCCATGAGGAAGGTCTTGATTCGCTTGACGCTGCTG	82.3 a.u.
CGTTAAGTAGCCCATCACGCAGCAAGACCGCGGCCCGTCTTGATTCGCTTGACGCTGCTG	68.2 a.u.
GCACCCGGCCTGCGCTGCGTGCAATGACTGCGGGCGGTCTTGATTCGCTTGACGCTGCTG	48.3 a.u.
CTAACGAAGGTTTTTCACGTGCAGTACAAGCCAAGTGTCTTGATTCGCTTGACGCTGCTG	968 a.u.
TGTGTCAATAACCCCATAATTTGAACTTCTTTCATCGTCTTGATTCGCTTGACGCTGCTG	85.8 a.u.
CTAACGAAGGTTTGTCACGGAACTTACAAGCCAAGTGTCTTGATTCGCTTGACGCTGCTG	91.5 a.u.

Mixed results
Substance	target	test	test system	setting	how to read	quantity	value
PhoQ, residues 284 288 289 292 302 303 NLALSC	PhoP, residues 12 14 15 18 19 AQALL (Escherichia coli, UniProt P23836)	Sort-seq, refers to: YFP reporter	E. coli	PhoQ-PhoP variant library, added: 10 µM Mg2+	baseline: high Mg2+ state, higher = stronger signaling	fold induction	1.94

Repeated from above (block 1):
Strand	RBNS enrichment (R)
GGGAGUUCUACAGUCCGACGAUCUGGUUCUUUGCUGUUUCUAUUAACCCACAGCAUUAUUUUAAUAAAUGUUAUAAUACCAACCUACUAACUCUGGACUUUGUCUGUUUAUUAACCUUUAUAUGUUUAAUUAAUGGAAUUCUCGGGUGCCAA	0.496
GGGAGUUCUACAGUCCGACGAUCUGUCCUUAAUGCUGCUUCUGUUAACAGUGAUCUCUUUCUUUUUUUCAUUCUUAUAUCUUCAUUAGUUCAUCAUAAAUCUGUCCAGUUGAGGCCUCAGGACCACGGCAUGAUGGAAUUCUCGGGUGCCAA	3.83
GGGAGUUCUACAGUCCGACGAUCUGGCCAGAGCUCCUGGUGUCAAAUGCUGGGAACAGGAGUCUUCUUACAAAUUAUUUUUCUCCUCUUUCCUCUCGCCCUCUCUUUCACUAUUUUCCCCCCAGACUGGAAUUUGGAAUUCUCGGGUGCCAA	0.56
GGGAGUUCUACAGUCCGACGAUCACCAUAGCUAAGUAGCAUCGCAGACUUAAGCGUACAAAGUGAUCUUGUUCACAAGUAAUCUGUUGACAGUGCCAAUAAAUGAUAAAAAAAAAAUUAACAUGUCACAAUGUUGGAAUUCUCGGGUGCCAA	0.504
